Results pooled from the literature.
Compare with care: the assays were run in different laboratories. “And” joins repeats or separate records; there may be more than shown. Numbers after ± are the reported error.

CC[C@H](C)[C@H](NC(=O)[C@H](CCCCN)NC(=O)CNC(=O)[C@H](CC(C)C)NC(=O)[C@H](Cc1ccccc1)NC(=O)[C@H](CCCCN)NC(=O)[C@H](CO)NC(=O)[C@H](Cc1ccccc1)NC(=O)[C@H](Cc1c[nH]c2ccccc12)NC(=O)[C@H](CCC(N)=O)NC(=O)[C@@H](NC(=O)[C@H](Cc1ccccc1)NC(=O)CCCCCNC(=O)CN1CCN(CC(=O)O)CCN(CC(=O)O)CCN(CC(=O)O)CC1)C(C)C)C(=O)N[C@@H](CCC(=O)O)C(=O)N1CCC[C@H]1C(=O)N[C@@H](CC(=O)O)C(=O)N[C@H](C(=O)N[C@@H](CO)C(=O)N[C@@H](CCC(N)=O)C(=O)N[C@H](C(=O)N[C@@H](CCC(N)=O)C(=O)N[C@@H](CC(=O)O)C(=O)N1CCC[C@H]1C(=O)N[C@@H](CC(N)=O)C(=O)N[C@@H](CC(=O)O)C(=O)N[C@@H](CCC(N)=O)C(=O)N[C@@H](Cc1ccc(O)cc1)C(=O)N[C@@H](CCC(=O)O)C(=O)N1CCC[C@H]1C(=O)N[C@@H](Cc1ccccc1)C(=O)O)C(C)C)C(C)C [copper-64 labelled] — SUVmean (dynamic PET; mouse, CT26 tumour, untreated, tumour; intravenous, 100 µCi/mouse, 2220 s): 1.2 SUV
CC[C@H](C)[C@@H]1NC(=O)[C@H](Cc2ccc(O)cc2)NC(=O)CCCSC[C@@H](C(=O)N(CC(=O)N[C@@H](CC(C)C)C(=O)NCC(N)=O)Cc2ccc(F)cc2)NC(=O)[C@H](CC(N)=O)NC(=O)[C@H](CCC(N)=O)NC1=O — deaths (human; intranasal, 400 µg repeated doses): 0%
CCN(CCCCOc1ccc(CCC(=O)N2CCC(Cc3ccccc3)CC2)cc1OC)Cc1ccccc1 — excretion rate (Sprague-Dawley rats, both sexes, urine; oral gavage, 25 mg/kg, 24 to 48 h; relative to: dose): 0.0039 ± 0.0014%
O=C1NC2(CC2)COc2ncc(F)cc2[C@H]2COCCN2c2ccn3ncc1c3n2 — fibrinogen (Sprague-Dawley rats, male, blood; oral, 5 mg/kg/day, end of treatment, 4-week subacute toxicity): 2.09 ± 0.31 g/L
CC(C)C[C@H](NC(=O)[C@H](CCCNC(=N)N)NC(=O)[C@H](Cc1ccccc1)NC(=O)[C@H](Cc1ccccc1)NC(=O)[C@@H](N)[C@@H](C)O)C(=O)N[C@@H](Cc1ccccc1)C(=O)N[C@@H](CC(N)=O)C(=O)N[C@@H](CCCNC(=N)N)C(=O)N[C@@H](C)C(=O)N[C@@H](CCCCN)C(=O)N[C@@H](CCCNC(=N)N)C(=O)N[C@@H](Cc1c[nH]cn1)C(=O)N[C@@H](Cc1c[nH]cn1)C(=O)NCC(=O)N[C@@H](Cc1ccc(O)cc1)C(=O)N[C@@H](CCCCN)C(=O)N[C@@H](CCCNC(=N)N)C(=O)N[C@@H](CCCCN)C(=O)N[C@@H](Cc1ccccc1)C(=O)N[C@@H](Cc1c[nH]cn1)C(=O)O — peptide concentration (HPLC-UV; human saliva; 6 h, 37 °C, added: initial 1 mg/mL): 0.119 mg/mL
CC(C)=CCC/C(C)=C/CCn1cc(CC(P(=O)(O)O)P(=O)(O)O)nn1 — Papp (PAMPA; phosphate buffer; 5 µg/mL, 5 h, room temperature): 0.063 ± 0.007 ×10⁻⁶ cm/s
CC(C)[C@@H]1NC(=O)CNC(=O)[C@H](CC(N)=O)NC(=O)[C@H](CCCNC(=N)N)NC(=O)[C@H](Cc2ccc(O)cc2)NC(=O)[C@H](C(C)C)NC(=O)[C@@H](NC(=O)[C@@H](NC(=O)[C@H](CC(N)=O)NC(=O)[C@H](Cc2c[nH]c3ccccc23)NC(=O)[C@H](C)NC(=O)[C@H](Cc2ccccc2)NC(=O)CNC(=O)[C@H](CCCCN)NC(=O)[C@H](Cc2ccccc2)NC(=O)[C@H](Cc2ccccc2)NC(=O)[C@H](CCCCN)NC(=O)OCC2c3ccccc3-c3ccccc32)C(C)C)CSSC[C@@H](C(=O)N[C@@H](Cc2c[nH]cn2)C(=O)N[C@@H](CCCNC(=N)N)C(=O)N[C@@H](CCCNC(=N)N)C(=O)N[C@@H](C)C(=O)N[C@@H](CC(N)=O)C(N)=O)NC(=O)[C@H](C(C)C)NC(=O)[C@H](CCCNC(=N)N)NC1=O — AST (ICR mice, serum; intraperitoneal, 5 mg/kg, day 5): 25.7 ± 2.01 IU/L
CC[C@H](C)[C@H](NC(=O)[C@H](Cc1c[nH]cn1)NC(=O)[C@H](CCCCN)NC(=O)[C@H](C)NC(=O)[C@H](C)NC(=O)[C@H](Cc1c[nH]cn1)NC(=O)[C@H](CCCNC(=N)N)NC(=O)CNC(=O)[C@H](Cc1c[nH]cn1)NC(=O)[C@H](CCCCN)NC(=O)[C@H](Cc1ccccc1)NC(=O)[C@@H](NC(=O)[C@H](CO)NC(=O)CNC(=O)[C@H](Cc1c[nH]c2ccccc12)NC(=O)CN)[C@@H](C)CC)C(=O)NCC(=O)N[C@@H](Cc1c[nH]cn1)C(=O)N[C@@H](C)C(=O)N[C@@H](C)C(=O)N[C@H](C(=O)N[C@@H](CC(N)=O)C(=O)N[C@@H](Cc1c[nH]cn1)C(=O)N[C@@H](Cc1ccc(O)cc1)C(=O)N[C@@H](CC(C)C)C(N)=O)C(C)C — acute toxic concentration (zebrafish embryos 4 hpf, E3 medium; 1 h): 25 µM
O=C(O)/C=C\c1ccc2occc2c1O[C@@H]1O[C@H](CO)[C@@H](O)[C@H](O)[C@H]1O — accuracy (post-procedure stability; rat plasma; 200 ng/mL, 1 h, room temperature): 81.2%
CS(=O)(=O)c1cc(Cl)cc(-c2cc(Cl)c(Cl)cc2Cl)c1Cl — dose fraction in permeate (ultrafiltration; cow milk whey; 20 nM nominal in whole milk): 39.3%
COCC1CN(C2CCN(c3cc(OC)c(Nc4ncc(Br)c(Nc5ccc6c(c5P(C)(C)=O)OCCO6)n4)cc3C)CC2)C1 — treatment-related AEs leading to death (EGFR-mutant NSCLC patients; oral, 60 mg once daily): 0%
CC(C)[C@H](NC(=O)[C@@H](NC(=O)[C@H](CCCNC(=N)N)NC(=O)[C@H](CCCNC(=N)N)NC(=O)[C@H](CCCNC(=N)N)NC(=O)[C@H](CCC(N)=O)NC(=O)[C@H](CCCNC(=N)N)NC(=O)[C@H](CCCNC(=N)N)NC(=O)[C@H](CCCCN)NC(=O)[C@H](CCCCN)NC(=O)[C@H](CCCNC(=N)N)NC(=O)CN)[C@@H](C)O)C(=O)N[C@H](C(=O)N[C@@H](CO)C(=O)N1CCC[C@H]1C(=O)O)[C@@H](C)O — organ weight (ICR mice, male, stomach; intranasal, 20 mg/kg daily, 4 weeks): 0.461 ± 0.128 g
CCCCCCCCCCCC(=O)C(C)C(=O)N1CCC[C@H]1C(=O)NC(C)(C)C(=O)NC(C)(C)C(=O)NC(C)(C)C(=O)N[C@](C)(CC)C(=O)NCCC(=O)N[C@@H](C)C(=O)N[C@](C)(CC)C(=O)N[C@@H](C)C(=O)N[C@@H](CC(C)C)C(=O)N[C@](C)(CC)C(=O)NCCC(=O)N[C@@H](C)C(=O)N[C@](C)(CC)C(=O)NCCC(=O)N[C@@H](C)C(=O)NC(C)(C)C(=O)NC(C)(C)C(=O)NC(C)(C)C(=O)N[C@@H](C)C(=O)N[C@@H](CC(=O)O)C(=O)O (stereo partly shown) — remaining intact peptide (LC-MS; buffer with trypsin; 40 µM, 20 min, pH 7.5, 37 °C; relative to: 0 h): 84.1% and 99.2% and 93.1%

Repeated from above:
CCCCCCCCCCCC(=O)C(C)C(=O)N1CCC[C@H]1C(=O)NC(C)(C)C(=O)NC(C)(C)C(=O)NC(C)(C)C(=O)N[C@](C)(CC)C(=O)NCCC(=O)N[C@@H](C)C(=O)N[C@](C)(CC)C(=O)N[C@@H](C)C(=O)N[C@@H](CC(C)C)C(=O)N[C@](C)(CC)C(=O)NCCC(=O)N[C@@H](C)C(=O)N[C@](C)(CC)C(=O)NCCC(=O)N[C@@H](C)C(=O)NC(C)(C)C(=O)NC(C)(C)C(=O)NC(C)(C)C(=O)N[C@@H](C)C(=O)N[C@@H](CC(=O)O)C(=O)O (stereo partly shown) — remaining intact peptide (LC-MS; buffer with trypsin; 40 µM, 20 min, pH 7.5, 37 °C; relative to: 0 h): 84.1% and 99.2% and 93.1%
